{"data": "Results collected from several papers", "note": "Parts stem from different laboratories: compare values within a part only."}
{"data": "Study 1", "target": "RNA binding protein fox-1 homolog 2, RRM domain, GST-SBP tag (RBFOX2, Homo sapiens, UniProt O43251-10, residues 100-194)", "technique": "RNA Bind-n-Seq", "form": "RNA", "matrix": "in vitro", "tested at": "365 nM", "setting": "natural RNA segment, single round, ends assumed", "relative to": "no-protein control", "direction": "higher = stronger binding", "shared flanks, not repeated": "GGGAGUUCUACAGUCCGACGAUC … UGGAAUUCUCGGGUGCCAA", "Construct (chain)": "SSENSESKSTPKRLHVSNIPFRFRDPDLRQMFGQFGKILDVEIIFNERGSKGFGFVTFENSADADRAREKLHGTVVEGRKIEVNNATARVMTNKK"}
{"Oligonucleotide": "AAUUGUAUGAAAAAAAAACUCUGCCUUCAAGCCUUUAAGGCAGGUUUUUAAGUCAUCAGCCAUAGUCCUAGGGUGAAGAACUCCAUUUGUGGGCCUUGUUCCCUUUGAAG", "RBNS enrichment (R)": 0.763}
{"Oligonucleotide": "GGGCCACAGGGUCAGAUGAGGGCUGCCUUUCGCUGCUGUGAACACUUACAGUACACCUGACUUGGAAGACCCUUUUGAGUUCAAGGCAGAGUGUGCAAUGUUGAAAUGGA", "RBNS enrichment (R)": 0.35}
{"Oligonucleotide": "UACUGGUAAAAUGGAAAUACUUCACAGAGUGAAUAAAGAAUACUUUUUUUUUUGUAAAUGUUCUGUAAAGAAAAAAUGUACAGUAAAUAAAGUGUUUUAUUUGUAGACUG", "RBNS enrichment (R)": 0.496}
{"Oligonucleotide": "ACUGUAAAGAGUUUGUGAAAGGUUUCAGUCUAACUGGGGUUCCUUAGCUGGAAGCCAGGGCUGGAAGCUACAGGCCUGACCUUCCUGGGUCCCACUAUCUGUUGGCAUUU", "RBNS enrichment (R)": 0.589}
{"Oligonucleotide": "UGCUAUUAUUGUAUUUCAGUGGCAAUGGACACAUUAGCCUUUUACAAGAGGACUAGAGUUCAUCAAGCCUUGAAAGGCAGGCUUCACAGUGCCGAGUUGGCGGGAAAAGC", "RBNS enrichment (R)": 0.294}
{"Oligonucleotide": "AUUGUAAAGUGUACUCUAGAGCCAGAUCAGGUGCACUAAAGUUUAUAGAGGUUCCAGUUUACAAACUCAAGUGAACAGUAAUCUUUGGAAGCUGCCAGUCUAAAUUCUAA", "RBNS enrichment (R)": 0.399}
{"Oligonucleotide": "UCACAGUCACAGAGAUCACCUGCCCCCUCUGCCUUUCAAGUACAGGGAUUAAAGGCAUGCAUCACCACAGCCUACAGCAAUGUGUGUCUUAUAUACUAUGAGAUAGUGAG", "RBNS enrichment (R)": 0.628}
{"Oligonucleotide": "UUUAAAAAGGAAACUACAUGGAGACCAUGCAAAAACAUUUAAAUAAUCCACUGUGCUGUGGCUCGCUGACCACUGUGUCCUUGUCAUGGACACCAGUGACCAUGCACAGU", "RBNS enrichment (R)": 0.739}
{"data": "Study 2", "target": "Histone acetyltransferase KAT6A, both winged helices, GST fusion (KAT6A, Homo sapiens, UniProt Q92794, residues 1-181)", "technique": "protein binding microarray", "form": "double-stranded DNA, one strand shown", "matrix": "in vitro", "tested at": "not given", "setting": "8-mer, flanks averaged, mean of 2 arrays, mostly near background", "relative to": "not given", "direction": "higher = stronger binding", "Construct (chain)": "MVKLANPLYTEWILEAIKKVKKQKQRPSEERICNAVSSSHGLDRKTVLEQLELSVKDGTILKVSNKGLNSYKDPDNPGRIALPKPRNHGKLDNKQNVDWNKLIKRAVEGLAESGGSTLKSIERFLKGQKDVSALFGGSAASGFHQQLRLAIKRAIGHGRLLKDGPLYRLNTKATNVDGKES"}
{"Oligonucleotide": "CGGTGGCA", "E-score": 0.0376}
{"Oligonucleotide": "ATAGCCAG", "E-score": -0.179}
{"Oligonucleotide": "GAGCTTAA", "E-score": -0.146}
{"Oligonucleotide": "CTACGTGA", "E-score": -0.162}
{"Oligonucleotide": "AAATGATT", "E-score": -0.0919}
{"Oligonucleotide": "CAAGAGGC", "E-score": -0.115}
{"Oligonucleotide": "AAGGATGA", "E-score": -0.109}
{"Oligonucleotide": "CGTGCGCA", "E-score": 0.3}
{"Oligonucleotide": "GACGCGGA", "E-score": 0.233}
{"Oligonucleotide": "GATCGGGA", "E-score": 0.0407}
{"Oligonucleotide": "CCACCATA", "E-score": -0.248}
{"Oligonucleotide": "AGAGGACT", "E-score": -0.11}
{"Oligonucleotide": "AATGCCCT", "E-score": -0.168}
{"Oligonucleotide": "GCAGTACA", "E-score": -0.13}
{"Oligonucleotide": "GATTAACC", "E-score": -0.0312}
{"Oligonucleotide": "CATGGTAG", "E-score": -0.0619}
{"Oligonucleotide": "CAGATGGG", "E-score": -0.193}
{"Oligonucleotide": "CCTTTCAG", "E-score": 0.0333}
{"data": "Study 3", "target": "Ras GTPase-activating protein-binding protein 1, RRM domain (G3BP1, Homo sapiens, UniProt Q13283)", "technique": "RNA Bind-n-Seq", "form": "RNA", "matrix": "in vitro", "tested at": "1 µM", "setting": "whole 134-nt RNA, ends assumed", "added": "150 mM KCl", "relative to": "input library", "direction": "higher = stronger binding", "shared flanks, not repeated": "GGGAGUUCUACAGUCCGACGAUC … UGGAAUUCUCGGGUGUCAAGG", "UniProt Q13283, sequence (whole entry, looked up)": "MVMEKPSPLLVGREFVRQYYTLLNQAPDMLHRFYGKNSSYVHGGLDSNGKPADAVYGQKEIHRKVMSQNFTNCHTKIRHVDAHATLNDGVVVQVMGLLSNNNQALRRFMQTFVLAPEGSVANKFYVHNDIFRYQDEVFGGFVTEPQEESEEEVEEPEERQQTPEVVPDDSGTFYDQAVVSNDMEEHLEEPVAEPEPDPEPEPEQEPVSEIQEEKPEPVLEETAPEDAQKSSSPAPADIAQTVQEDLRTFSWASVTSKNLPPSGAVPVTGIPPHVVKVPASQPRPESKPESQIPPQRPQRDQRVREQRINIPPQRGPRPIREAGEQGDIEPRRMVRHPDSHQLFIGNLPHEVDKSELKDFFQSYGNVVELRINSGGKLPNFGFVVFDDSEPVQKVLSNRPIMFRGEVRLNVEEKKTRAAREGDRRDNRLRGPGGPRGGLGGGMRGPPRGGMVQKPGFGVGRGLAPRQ"}
{"Oligonucleotide": "CUCAAGUCCUGUGCUACACAUCGUAUGUACCGAAUCGGGUUGGGGUUGGGUUGGAAAGUAUUAUGUUACGCCGUUCGGAUCUGCACUUCC", "log2 enrichment": -0.208}
{"Oligonucleotide": "AGUCCUGUGCUACACAUCGUAUGUACCGAAUCGGUUUUUGGUUUUUGGUUUUUUUGGAAAGUAUUAUGUUACGCCGUUCGGAUCUGCACU", "log2 enrichment": -0.237}
{"Oligonucleotide": "UCAAGUCCUGUGCUACACAUCGUAUGUACCGAAUCGGGUUGGGGUUGGGGUUGGAAAGUAUUAUGUUACGCCGUUCGGAUCUGCACUUCC", "log2 enrichment": -0.0444}
{"Oligonucleotide": "GCAGGAAGUAAAAACAAAUGGAAAUGCUUCGGAUAGUGGCAGGAGUGGGGGUUGCUAAGGAAAGGGUGGGAUGGGAGUGGGUAAAGAGUU", "log2 enrichment": 0.911}
{"Oligonucleotide": "AAGUCCUGUGCUACACAUCGUAUGUACCGAAUCAAAUUUUUAAACCCAAACCCAAAAAAGUAUUAUGUUACGCCGUUCGGAUCUGCACUU", "log2 enrichment": -0.295}
{"Oligonucleotide": "AGUCCUGUGCUACACAUCGUAUGUACCGAAUCGGGUUUUGGGUUUUGGGUUUUGGGGAAAGUAUUAUGUUACGCCGUUCGGAUCUGCACU", "log2 enrichment": 0.796}
{"Oligonucleotide": "UGGGAGGUGGAUUUUGUUUAUUUUUUUAGCUCAUUUCCAGGGGUGGGAAUUUUUUUUUAAUAUCUGUCAUGAAUAAAGUUGUUUUUGAAA", "log2 enrichment": 1.26}
{"Oligonucleotide": "UCCUGUGCUACACAUCGUAUGUACCGAAUCGGGGUUUUUUGGUUUUUUGGGUUUUUUGGAAAGUAUUAUGUUACGCCGUUCGGAUCUGCA", "log2 enrichment": -0.0607}
{"Oligonucleotide": "CUCAAGUCCUGUGCUACACAUCGUAUGUACCGAAUCGGGAGGGGAGGGAGGGGAAAGUAUUAUGUUACGCCGUUCGGAUCUGCACUUCCA", "log2 enrichment": 1.43}
{"data": "Study 4", "target": "RING finger protein unkempt homolog, zinc fingers 1-6, GST-SBP tag (UNK, Homo sapiens, UniProt Q9C0B0, residues 30-357)", "technique": "RNA Bind-n-Seq", "form": "RNA", "matrix": "in vitro", "tested at": "not given", "setting": "RNA with constant flanks, human and mouse sites, ends assumed", "relative to": "input RNA pool", "direction": "higher = stronger binding", "shared flanks, not repeated": "GGGAGUUCUACAGUCCGACGAUC … CAACAGAGGAUUGAGCAUCA", "UniProt Q9C0B0, sequence (30-357, looked up)": "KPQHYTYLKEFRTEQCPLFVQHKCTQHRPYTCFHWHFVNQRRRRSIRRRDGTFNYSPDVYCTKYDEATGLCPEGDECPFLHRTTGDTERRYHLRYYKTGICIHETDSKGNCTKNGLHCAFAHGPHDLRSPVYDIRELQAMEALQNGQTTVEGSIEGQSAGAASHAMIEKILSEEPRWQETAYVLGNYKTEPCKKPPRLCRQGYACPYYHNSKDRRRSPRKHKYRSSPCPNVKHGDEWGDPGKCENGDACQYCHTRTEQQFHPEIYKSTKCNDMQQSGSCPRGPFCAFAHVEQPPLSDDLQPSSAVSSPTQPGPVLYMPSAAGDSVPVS"}
{"Oligonucleotide": "UGAUGCCCAUUUUUUGUGCCUUGUGCUGUUGGAUGGUAACGACCACUCACCAUGUAAACACAGUACCUCAGUUUUCUGUCCACAGCUGCAGUCGCUCUGUCCCUCGUGCUUCACUGUGGG", "bound/input enrichment": "0.168 ratio"}
{"Oligonucleotide": "UCACCCACUCUUUGAGUACUUUGACUACGAGUCCAGAAAGAGCAUGAGUUGUUAUGUGCUUAGUAAUGUUCUGGAUUAUAACACAGAAAUUGUCUCUCAAGACCAGGUGGAUUCCAUAAU", "bound/input enrichment": "0.14 ratio"}
{"Oligonucleotide": "CAUGUCAUGCAUUUUUCUAAAUGGGCAGUUUCCAGUGGCAGCAGUACAGCAUUACUUUAUAGCAAACGACUGAUUACAUACCGGUUACGGCACCUCCUUCGUGCAAGGUGUGAUGCAUCC", "bound/input enrichment": "0.258 ratio"}
{"Oligonucleotide": "AGAGAUAAGACAUCCAGGAACAUGCGAGGCUCCCGGAUGAAUGGGUUGCCUAGCCCCACUCACAGCGCCCACUGUAGCUUCUACCGAACCAGAACCUUGCAGGCACUGAGUAAUGAGAAG", "bound/input enrichment": "0.138 ratio"}
{"Oligonucleotide": "UCUGGUCUCCUUGGAGAAAGGUUCUGUUGCCCUGAUUUAUGAACUCUAUAAUAGAGUAUAUAGGUUUUGUACCUUUUUUACAGGAAGGUGACUUUCUGUAACAAUGCGAUGUAUAUUAAA", "bound/input enrichment": "2.85 ratio"}
{"Oligonucleotide": "AAGAAAAUCAGUACUCCUGUUGAUGUCAAUAACCGUGAGAUGAUGUUGAGCAUCAUCAAUAGCUCUAUUACUACAAAAGUCAUCAGUCGGUGGUCCUCCUUGGCAUGCAACAUUGCACUG", "bound/input enrichment": "0.22 ratio"}
{"Oligonucleotide": "AAUGCUUGUUGGGUGCAUAAACACUUCACGGAAGACAUCCAGACGCGUCAGUACCGCUCCAUAGAGGUUUUAAUAGGAGCGGGGUACAGCACCCCUGCGGACAUCUGGAGCACGGCGUGU", "bound/input enrichment": "0.242 ratio"}
{"Oligonucleotide": "GAACAGUUUGUCCAGCUCCUUUCCGUAUCCUGUUGAACAUAUCAGGCAAACAGCGCCCAUCUUAGAACCUGCUCCCAGCAUUUACACUGUGGGAAUAAAGGUAGGCAGGGCUGUGCUGGG", "bound/input enrichment": "0.171 ratio"}
{"note": "Repeated from above (study 3):"}
{"Oligonucleotide": "CUCAAGUCCUGUGCUACACAUCGUAUGUACCGAAUCGGGAGGGGAGGGAGGGGAAAGUAUUAUGUUACGCCGUUCGGAUCUGCACUUCCA", "log2 enrichment": 1.43}
{"Oligonucleotide": "CUCAAGUCCUGUGCUACACAUCGUAUGUACCGAAUCGGGUUGGGGUUGGGUUGGAAAGUAUUAUGUUACGCCGUUCGGAUCUGCACUUCC", "log2 enrichment": -0.208}
{"Oligonucleotide": "UCAAGUCCUGUGCUACACAUCGUAUGUACCGAAUCGGGUUGGGGUUGGGGUUGGAAAGUAUUAUGUUACGCCGUUCGGAUCUGCACUUCC", "log2 enrichment": -0.0444}
